# Assay results collected from several papers.
# Each line is one published result; not all experiments were run side by side. Numbers after ± are the reported error.
# Organism: Pseudomonas aeruginosa
Molecule,assay,test system,conditions,scale,measurement,result
CC(C)C[C@H](NC(=O)[C@H](C)NC(=O)[C@H](CCCCN)NC(=O)[C@H](Cc1c[nH]c2ccccc12)NC(=O)[C@H](CC(C)C)NC(=O)[C@H](CC(C)C)NC(=O)[C@H](C)NC(=O)[C@H](CC(C)C)NC(=O)[C@H](CCCCN)NC(=O)[C@H](C)NC(=O)[C@@H]1CCCN1C(=O)[C@H](C)NC(=O)[C@H](CC(C)C)NC(=O)[C@H](CCCCN)NC(=O)[C@H](CC(C)C)NC(=O)[C@H](CCCCN)NC(=O)[C@@H](N)CCCCN)C(=O)N[C@@H](C)C(=O)N[C@@H](CC(C)C)C(=O)N[C@@H](CCCCN)C(=O)N[C@@H](CC(C)C)C(=O)N[C@@H](CCCCN)C(=O)N[C@@H](CCCCN)C(=O)N[C@@H](C)C(N)=O,broth microdilution,PAO1,"overnight, 37 °C",,MIC50,2.98 ± 0.21 µM
GIGKWLHSAKKFGKAFVGEIMNS-NH2 (C-amide),"bacterial growth, broth microdilution","peptide, PAO1, Mueller-Hinton broth","overnight, 37 °C",,MIC50,7.29 ± 2.73 µg/mL
CC[C@H](C)CCCCC(=O)N[C@@H](CCN)C(=O)N[C@H](C(=O)N[C@@H](CCN)C(=O)N[C@H]1CCNC(=O)[C@H]([C@@H](C)O)NC(=O)[C@H](CCN)NC(=O)[C@H](CCN)NC(=O)[C@H](CC(C)C)NC(=O)[C@@H](Cc2ccccc2)NC(=O)[C@H](CCN)NC1=O)[C@@H](C)O,,"carbapenem-resistant, human","inhaled plus intravenous, 25 mg inhaled plus 100 mg intravenous every 12 h, 5 d, added: meropenem and piperacillin/tazobactam",,microbiological response at end of treatment,negative
CC[C@H](C)[C@H](NC(=O)[C@H](C)NC(=O)[C@@H](NC(=O)[C@H](C)NC(=O)CNC(=O)[C@H](CCSC)NC(=O)[C@H](CCC(N)=O)NC(=O)[C@H](CC(C)C)NC(=O)[C@H](CO)NC(=O)[C@@H](N)Cc1ccc(O)cc1)[C@@H](C)O)C(=O)N[C@@H](CCCCN)C(=O)N[C@@H](CCC(N)=O)C(=O)N[C@H](C(=O)N[C@@H](CCCCN)C(=O)N[C@@H](CCCCN)C(=O)N[C@@H](CC(C)C)C(=O)N[C@@H](Cc1ccccc1)C(=O)N[C@@H](CCCCN)C(=O)N[C@@H](CCCCN)C(=O)N[C@@H](CCCCN)C(=O)NCC(=O)NCC(N)=O)C(C)C,broth microdilution,ATCC 9027,"24 h, 37 °C",,MIC50,155 µM
CC[C@H](C)[C@H](N)C(=O)N[C@@H](CC(C)C)C(=O)N1CCC[C@H]1C(=O)N[C@@H](Cc1c[nH]c2ccccc12)C(=O)N[C@@H](CCCCN)C(=O)N[C@@H](Cc1c[nH]c2ccccc12)C(=O)N1CCC[C@H]1C(=O)N[C@@H](Cc1c[nH]c2ccccc12)C(=O)N[C@@H](Cc1c[nH]c2ccccc12)C(=O)N1CCC[C@H]1C(=O)N[C@@H](Cc1c[nH]c2ccccc12)C(=O)N[C@@H](CCCNC(=N)N)C(=O)N[C@@H](CCCNC(=N)N)C(N)=O,broth microdilution,,"18 h, 10 clinical isolates",,MIC90,64 µg/mL
CC(C)C[C@H](NC(=O)[C@H](C)NC(=O)[C@H](CC(C)C)NC(=O)[C@H](CCCCN)NC(=O)[C@H](CCCCN)NC(=O)[C@H](Cc1c[nH]c2ccccc12)NC(=O)[C@H](CC(C)C)NC(=O)[C@H](CC(C)C)NC(=O)[C@H](C)NC(=O)[C@H](CC(C)C)NC(=O)[C@H](CCCCN)NC(=O)[C@H](CCCCN)NC(=O)[C@@H]1CCCN1C(=O)[C@H](C)NC(=O)[C@H](CC(C)C)NC(=O)[C@H](C)NC(=O)[C@H](CC(C)C)NC(=O)[C@H](CCCCN)NC(=O)[C@@H](N)CCCCN)C(=O)N[C@@H](C)C(=O)N[C@@H](CC(C)C)C(=O)N[C@@H](CCCCN)C(=O)N[C@@H](CCCCN)C(=O)N[C@@H](C)C(N)=O,broth microdilution,PAO1,"overnight, 37 °C",,MIC50,4.45 ± 0.19 µM
CC[C@H](C)[C@H](NC(=O)[C@H](CCCNC(=N)N)NC(=O)[C@H](Cc1c[nH]c2ccccc12)NC(=O)[C@H](CCCNC(=N)N)NC(=O)[C@@H](N)CCCCN)C(=O)N[C@@H](CCCNC(=N)N)C(=O)N[C@H](C(=O)N[C@@H](CCCNC(=N)N)C(=O)N[C@H](C(=O)N[C@H](C(=O)N[C@@H](CCCNC(=N)N)C(=O)N[C@@H](CCCCN)C(=O)N[C@@H](CS)C(=O)O)[C@@H](C)CC)C(C)C)C(C)C,,ATCC 27853,"90, 300, 500 µM, 24 h, biofilm",,MBEC,300 µM
CC[C@H](C)[C@H](NC(=O)[C@H](C)NC(=O)[C@@H](NC(=O)[C@H](C)NC(=O)CNC(C)=O)[C@@H](C)O)C(=O)N[C@@H](CCCCN)C(=O)N[C@@H](CCC(N)=O)C(=O)N[C@H](C(=O)N[C@@H](CCCCN)C(=O)N[C@@H](CCCCN)C(=O)N[C@@H](CC(C)C)C(=O)N[C@@H](Cc1ccccc1)C(=O)N[C@@H](CCCCN)C(=O)N[C@@H](CCCCN)C(=O)N[C@@H](CCCCN)C(=O)NCC(=O)NCC(N)=O)C(C)C,broth microdilution,ATCC 9027,"24 h, 37 °C",,MIC50,155 µM
CC(C)C[C@H](NC(=O)[C@H](C)NC(=O)[C@H](CCCCN)NC(=O)[C@H](C)NC(=O)[C@H](CC(C)C)NC(=O)[C@H](CCCCN)NC(=O)[C@H](CC(C)C)NC(=O)[C@H](Cc1c[nH]c2ccccc12)NC(=O)[C@H](CC(C)C)NC(=O)[C@H](CC(C)C)NC(=O)[C@H](C)NC(=O)[C@H](CC(C)C)NC(=O)[C@H](CC(C)C)NC(=O)[C@H](CCCCN)NC(=O)[C@@H]1CCCN1C(=O)[C@H](C)NC(=O)[C@H](CCCCN)NC(=O)[C@H](C)NC(=O)[C@H](CC(C)C)NC(=O)[C@H](CCCCN)NC(=O)[C@@H](N)CCCCN)C(=O)N[C@@H](CCCCN)C(=O)N[C@@H](CCCCN)C(=O)N[C@@H](C)C(N)=O,broth microdilution,PAO1,"overnight, 37 °C",,MIC50,2.13 ± 0.77 µM
CC[C@H](C)CCCCC(=O)N[C@@H](CCN)C(=O)N[C@H](C(=O)N[C@@H](CCN)C(=O)N[C@H]1CCNC(=O)[C@H]([C@@H](C)O)NC(=O)[C@H](CCN)NC(=O)[C@H](CCN)NC(=O)[C@H](CC(C)C)NC(=O)[C@@H](Cc2ccccc2)NC(=O)[C@H](CCN)NC1=O)[C@@H](C)O,,"PAO1 vacJ mutant, cation-adjusted Mueller-Hinton broth",,relative to: vacJ mutant over wild type,MIC decrease,2 fold
CC(C)C[C@H](NC(=O)[C@H](C)NC(=O)[C@H](CCCCN)NC(=O)[C@H](Cc1c[nH]c2ccccc12)NC(=O)[C@H](CC(C)C)NC(=O)[C@H](CC(C)C)NC(=O)[C@H](C)NC(=O)[C@@H]1CCCN1C(=O)[C@H](CCCCN)NC(=O)[C@H](C)NC(=O)[C@H](CC(C)C)NC(=O)[C@H](C)NC(=O)[C@H](CC(C)C)NC(=O)[C@H](CCCCN)NC(=O)[C@H](CC(C)C)NC(=O)[C@H](CCCCN)NC(=O)[C@@H](N)CCCCN)C(=O)N[C@@H](C)C(=O)N[C@@H](CC(C)C)C(=O)N[C@@H](CCCCN)C(=O)N[C@@H](CC(C)C)C(=O)N[C@@H](CCCCN)C(=O)N[C@@H](CCCCN)C(=O)N[C@@H](C)C(N)=O,broth microdilution,PAO1,"overnight, 37 °C",,MIC50,4.14 ± 0.23 µM
CC[C@H](C)[C@H](NC(=O)[C@H](C)NC(=O)[C@@H](NC(=O)[C@H](C)NC(=O)CN)[C@@H](C)O)C(=O)N[C@@H](CCCCN)C(=O)N[C@@H](CCC(N)=O)C(=O)N[C@H](C(=O)N[C@@H](CCCCN)C(=O)N[C@@H](CCCCN)C(=O)N[C@@H](CC(C)C)C(=O)N[C@@H](Cc1ccccc1)C(=O)N[C@@H](CCCCN)C(=O)N[C@@H](CCCCN)C(=O)N[C@@H](CCCCN)C(=O)NCC(=O)NCC(N)=O)C(C)C,broth microdilution,ATCC 9027,"24 h, 37 °C",,MIC50,155 µM

# Some of these lines once more:
Molecule,assay,test system,conditions,scale,measurement,result
CC(C)C[C@H](NC(=O)[C@H](C)NC(=O)[C@H](CC(C)C)NC(=O)[C@H](CCCCN)NC(=O)[C@H](CCCCN)NC(=O)[C@H](Cc1c[nH]c2ccccc12)NC(=O)[C@H](CC(C)C)NC(=O)[C@H](CC(C)C)NC(=O)[C@H](C)NC(=O)[C@H](CC(C)C)NC(=O)[C@H](CCCCN)NC(=O)[C@H](CCCCN)NC(=O)[C@@H]1CCCN1C(=O)[C@H](C)NC(=O)[C@H](CC(C)C)NC(=O)[C@H](C)NC(=O)[C@H](CC(C)C)NC(=O)[C@H](CCCCN)NC(=O)[C@@H](N)CCCCN)C(=O)N[C@@H](C)C(=O)N[C@@H](CC(C)C)C(=O)N[C@@H](CCCCN)C(=O)N[C@@H](CCCCN)C(=O)N[C@@H](C)C(N)=O,broth microdilution,PAO1,"overnight, 37 °C",,MIC50,4.45 ± 0.19 µM
